Measurements of several laboratories.
Each numbered part is a random draw from the data of one study; scales do not carry over between parts.

Block 1
Target: Prothrombin, mature alpha-thrombin (F2, Homo sapiens, UniProt P00734)
Method: aptamer microarray, sandwich
Form: DNA with 2'F-ANA
Matrix: in vitro
Concentration: 200 nM
Setting: whole 15-mer aptamer, many near background
Together with: Cy3 exosite-II aptamer, 400 nM
Reading: higher = stronger binding
Oligonucleotide: GGTTGGTGTGGTTGG
Modification	mean fluorescence intensity [a.u.]
2'F-ANA at 2 3 10 11 12 13 14 15	278
2'F-ANA at 3 4 6 9 10 11 12 13 14 15	167
2'F-ANA at 2 4 5 8 9 10 11	58.7
2'F-ANA at 8 11 13	498
2'F-ANA at 1 4 8 11 13 14	51.5
2'F-ANA at 4 6 11 13 15	155
2'F-ANA at 1 3 5 7 8 10	52.4
2'F-ANA at 1 3 4 5 8 10 12 14	45.2
2'F-ANA at 1 2 3 6 7 8 10 11 12 13	79.6
2'F-ANA at 2 4 5 6 7 8 12 13 14	43.9
2'F-ANA at 1 2 3 4 5 8 9 11 12 13 14	50.1
2'F-ANA at 1 3 4 5 6 7 13	48.3
2'F-ANA at 2 5 7 8 11 14	56.1
2'F-ANA at 1 3 4 5 6 12 13	75
2'F-ANA at 1 3 5 7 8 9 11 12 14	49.1
2'F-ANA at 3 5 6 7 8 9 11 12 13 15	140
2'F-ANA at 1 2 4 6 7 8 9 15	122
2'F-ANA at 1 2 5 6 7 8 10 11 15	58.5
2'F-ANA at 4 10 11 13 15	124
2'F-ANA at 3 4 5 7 8 13	75.2
2'F-ANA at 1 3 9 12	620
2'F-ANA at 1 4 6 7 9 11 13	70.5
2'F-ANA at 2 5 6 7 8 14	48.7
2'F-ANA at 3 4 5 10 11 14 15	93.1
2'F-ANA at 3 4 6 8 11 12 14 15	261

Block 2
Target: Sal-like protein 4, full length isoform A (SALL4, Homo sapiens, UniProt Q9UJQ4, residues 1-1053)
Chain of UniProt Q9UJQ4 (whole entry, looked up): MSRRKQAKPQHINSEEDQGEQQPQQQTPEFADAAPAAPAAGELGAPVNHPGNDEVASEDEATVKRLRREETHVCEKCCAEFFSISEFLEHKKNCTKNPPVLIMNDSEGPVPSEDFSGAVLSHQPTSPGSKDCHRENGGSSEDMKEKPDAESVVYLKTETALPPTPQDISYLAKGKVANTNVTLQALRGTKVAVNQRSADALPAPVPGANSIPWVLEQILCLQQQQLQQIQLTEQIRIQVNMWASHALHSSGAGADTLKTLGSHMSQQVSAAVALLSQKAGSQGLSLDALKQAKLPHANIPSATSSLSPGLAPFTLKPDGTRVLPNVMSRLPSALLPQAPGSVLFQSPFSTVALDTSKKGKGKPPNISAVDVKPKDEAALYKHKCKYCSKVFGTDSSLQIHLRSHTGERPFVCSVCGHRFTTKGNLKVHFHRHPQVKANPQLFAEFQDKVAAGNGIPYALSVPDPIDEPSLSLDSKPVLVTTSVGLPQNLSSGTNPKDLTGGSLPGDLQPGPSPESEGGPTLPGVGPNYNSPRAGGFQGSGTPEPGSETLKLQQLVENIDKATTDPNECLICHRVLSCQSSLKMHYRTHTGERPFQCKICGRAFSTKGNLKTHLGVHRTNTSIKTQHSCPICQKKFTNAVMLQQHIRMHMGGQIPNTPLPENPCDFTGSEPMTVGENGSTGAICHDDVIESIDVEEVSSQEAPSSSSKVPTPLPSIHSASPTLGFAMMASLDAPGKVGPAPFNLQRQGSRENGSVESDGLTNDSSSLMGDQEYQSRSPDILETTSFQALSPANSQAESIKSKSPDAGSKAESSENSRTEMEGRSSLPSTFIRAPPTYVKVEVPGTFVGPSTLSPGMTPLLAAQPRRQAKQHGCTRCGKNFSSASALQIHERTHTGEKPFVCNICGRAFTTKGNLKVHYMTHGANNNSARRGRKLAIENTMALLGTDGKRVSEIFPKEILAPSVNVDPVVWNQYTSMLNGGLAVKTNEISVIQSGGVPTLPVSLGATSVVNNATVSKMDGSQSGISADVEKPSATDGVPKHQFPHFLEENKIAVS
Method: universal PBM
Form: double-stranded DNA, one strand shown
Matrix: in vitro
Concentration: 600 nM
Setting: 8-mer, flanks averaged, mean of replicates
Reading: higher = stronger binding
Oligonucleotide	E-score
TATCGCCA	-0.0464
CGGTGATC	-0.216
GAGCACAC	-0.176
AGACATTC	0.183
ACAGATGT	0.0898
CTTGCCAC	-0.0267
CGGCCGGA	-0.231
CATCGTTC	-0.146
AATCTTAC	0.277
CTAGACTC	-0.124
GCTCTAGA	-0.202
CTGAAGCC	-0.162
CTCTAAGC	0.0735
CACGGAAC	0.00806
CACGACGC	-0.309
TAGCCTGA	-0.0754
TAATACAA	0.309
CTATTGGA	0.201

Block 3
Target: RNA binding protein fox-1 homolog 2, RRM domain, GST-SBP tag (RBFOX2, Homo sapiens, UniProt O43251-10, residues 100-194)
Method: RNA Bind-n-Seq
Form: RNA
Matrix: in vitro
Concentration: 365 nM
Setting: natural RNA segment, single round, ends assumed
Relative to: no-protein control
Reading: higher = stronger binding
Target sequence (chain): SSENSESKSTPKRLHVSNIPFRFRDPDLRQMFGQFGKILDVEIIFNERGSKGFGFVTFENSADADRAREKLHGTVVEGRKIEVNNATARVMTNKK
Oligonucleotide	RBNS enrichment (R)
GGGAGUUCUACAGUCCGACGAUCUUGUAUUCUCGACACAAAAUAAGUGAAACUUCUUUUUACAAAGAUAGAGAAACAGCACAAUCAAUUCCAAAUGGUAUGAGAUGGAUUGGAAGUGGCCAGCAGCAAGUUCUUGGAAUUCUCGGGUGCCAA	1.26
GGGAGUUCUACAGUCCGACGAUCAUGACAGCUGAUGUUAAACUUUUCAUAUUUCAAAUUAGAUUCCCUAGGAGGUAUAAUAUAUAUUUCUUGAGUAAUAAUGUGGUUACGGAAUUCCAAUGUUAUAGUGAAGUUGGAAUUCUCGGGUGCCAA	1.02
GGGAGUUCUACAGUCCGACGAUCUUUCUCUCCCGUCUCAGUGGCUUCUCUGAGGUGCUGUACACGCGCGUUAACCUGUUCCCUUCUCUAUCCUUCCCCGUGGUACUGAGCUCACGUGGACUCCCAGUGCGAAGUGGAAUUCUCGGGUGCCAA	0.717
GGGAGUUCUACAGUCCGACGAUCAUCAGUUGUAUUCUAGUAAAGAACCUCUUUGGGGACUGUAGGAAAGCAUGUUUUUGUGGUUAUAAAAACACUUAAAAAUCCUGAUAAUUCUGGGCUUGUAUAAUGCCUGUUGGAAUUCUCGGGUGCCAA	1.43
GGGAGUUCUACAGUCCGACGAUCAUAAUUCUGUUUGCUAAAUGUUGCCUUUAUGCUUUCAAACUGAAUUAAACCCAUUGUGAGGUUGACACUGGGAGGGGCUAGAAGAUUGGUGGGCAGCAGACUAAAGAGUUUGGAAUUCUCGGGUGCCAA	1.1
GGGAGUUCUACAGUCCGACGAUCGCCGUGACUGGUUUUCUGUCCCCAAGAACGUGACGUUCGUGAUGUCCUGCCCGCCGGGAGUCUUUCCCCACACCCCAGCCAUCGCCGCCCGCUCCCAGGAGGCCAGGGCAUGGAAUUCUCGGGUGCCAA	0.436
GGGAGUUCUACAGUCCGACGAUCGUGACAACUUCUGGGCCCAGGAGUAAUUUCUCAGCAUUGAGGGUAAAAUAGGAUGGAGUGCUCUGUUGAUCAUUUGGGAGAUGUAGGUUACCUGAUUUGUGCCUUAGGAUUGGAAUUCUCGGGUGCCAA	1.19
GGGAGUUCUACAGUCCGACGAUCGAUGCCUAAUUUCUCUAUGUUCUGUUUGAAGGUUUCUGUCCAGAUAAAAUUGUCUUUUGAAAUUCAAUACUGUCUUGUGUUUACUUUUAGCUUCAGGGAAACCUCUUCCCUGGAAUUCUCGGGUGCCAA	0.851
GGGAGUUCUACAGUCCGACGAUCACACUGAUGGCUGACAGUGUGUGCGUCCUUCACGCCGGUGUGCAACGUACGCAGUGUUUACUCAGUGUGGCUCCCGCCUCAGACUGAAUUAAAGUAUUACUAUAGCAUGCUGGAAUUCUCGGGUGCCAA	3.95
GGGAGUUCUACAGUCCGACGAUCGGGUAACUUGCCACCACCCUGGAUCCAAGUUCCCAUGGAGGGGAAAAUUAGGACAUUUAGUAGUGAGGCACUGGUACCUUCUCCCUGCUCCUGUUAUAGAGGAGGCUACGUGGAAUUCUCGGGUGCCAA	0.468
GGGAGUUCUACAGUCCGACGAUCGGUUCUGUGCUAGCUGAUGCAAGGACAUUAGCUCCAAAGGCUGGGGAGGGCUUGGCUCUCCCUCUGUGUCUUCCUGGUGUCCCGCCCUGGCCAGCUCUCGUCUGCUCUCGUGGAAUUCUCGGGUGCCAA	0.224
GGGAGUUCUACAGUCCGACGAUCAAACCUUUUCAGAUUUUUCAUCUGAUUUGUUCUUGCAGAUGUUCUUCUAUCAAAUACCUUAUUUUACCUUACAGAUAUUUGUUGCACAGGCAGAUACUGCUGUAUUUAGAUGGAAUUCUCGGGUGCCAA	0.434

Block 4
Target: Histone acetyltransferase KAT6A, winged helix 2, GST fusion (KAT6A, Homo sapiens, UniProt Q92794, residues 85-181)
Method: protein binding microarray
Form: double-stranded DNA, one strand shown
Matrix: in vitro
Concentration: not given
Setting: 8-mer, flanks averaged, mean of 2 arrays, mostly near background
Relative to: not given
Reading: higher = stronger binding
Construct (chain): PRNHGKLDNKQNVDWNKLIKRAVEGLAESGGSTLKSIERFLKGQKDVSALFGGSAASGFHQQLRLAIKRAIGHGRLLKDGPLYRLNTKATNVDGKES
Oligonucleotide	E-score
CTCCCGAG	0.07
AATTATGT	-0.0835
AACTACCG	0.00844
AAGCGCTG	0.0646
AGGTTCAA	0.0351
ACACGCCT	-0.0369
AAAGATAT	0.0769
CGCGGTAG	0.133
GGCGCCTA	0.0956
CCGTATCA	0.115
ACCTTGAC	0.0293
CACGTTAC	-0.139
CCCTACAA	-0.0939
ACGCATCC	0.0192
CATATCTC	-0.05
TACGTGAA	-0.112
CCGGTTTC	-0.0293
GTTTGATA	0.109
GGCCGAAA	0.256
CGTACCAA	-5e-06
CCCTGTAC	-0.111
AATCTAGG	-0.00285
CGTACTTC	-0.096
ACCCCTTG	-0.104
AAAATTTC	0.0901

Block 5
Target: Ras GTPase-activating protein-binding protein 1, full length (G3BP1, Homo sapiens, UniProt Q13283)
Chain of UniProt Q13283 (whole entry, looked up): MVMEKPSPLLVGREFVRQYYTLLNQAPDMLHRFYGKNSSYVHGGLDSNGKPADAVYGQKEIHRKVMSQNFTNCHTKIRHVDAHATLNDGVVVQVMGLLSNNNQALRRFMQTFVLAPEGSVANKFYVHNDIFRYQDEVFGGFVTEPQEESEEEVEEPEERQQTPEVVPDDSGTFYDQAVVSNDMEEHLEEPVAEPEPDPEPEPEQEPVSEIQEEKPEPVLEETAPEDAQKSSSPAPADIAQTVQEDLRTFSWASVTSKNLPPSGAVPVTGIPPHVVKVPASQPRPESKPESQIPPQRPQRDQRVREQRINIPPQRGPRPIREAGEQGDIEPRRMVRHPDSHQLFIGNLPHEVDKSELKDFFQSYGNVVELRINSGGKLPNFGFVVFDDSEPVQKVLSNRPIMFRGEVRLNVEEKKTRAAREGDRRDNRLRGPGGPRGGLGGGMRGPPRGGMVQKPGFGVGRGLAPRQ
Method: RNA Bind-n-Seq
Form: RNA
Matrix: in vitro
Concentration: 200 nM
Setting: whole 134-nt RNA, ends assumed
Together with: 150 mM KCl
Relative to: input library
Reading: higher = stronger binding
Oligonucleotide	log2 enrichment
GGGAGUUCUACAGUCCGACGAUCUUCCCUGGUGUGAUUCCGUCCUGCGCGGUUGUUCUCUGGAGCAGCGUUCUUUUAUCUCCGUCCGCCUUCUCUCCUACCUAAGUGCGUGCCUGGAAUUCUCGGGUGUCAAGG	0.613
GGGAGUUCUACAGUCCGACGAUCCAAGUCCUGUGCUACACAUCGUAUGUACCGAAUCAAAUUUAAAUUUAAACCCAAAAAAGUAUUAUGUUACGCCGUUCGGAUCUGCACUUCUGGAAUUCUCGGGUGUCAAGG	-0.315
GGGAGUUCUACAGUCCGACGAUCAGUCCUGUGCUACACAUCGUAUGUACCGAAUCGGCCCCGGGCCCCGGGGCCCCGGGGAAAGUAUUAUGUUACGCCGUUCGGAUCUGCACUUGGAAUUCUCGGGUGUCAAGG	-1.25
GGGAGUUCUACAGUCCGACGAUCCCUCAAGUCCUGUGCUACACAUCGUAUGUACCGAAUCGGGUGGUGGGGUGGGAAAGUAUUAUGUUACGCCGUUCGGAUCUGCACUUCCAGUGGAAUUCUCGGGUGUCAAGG	0.951
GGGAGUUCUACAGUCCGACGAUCCACAGACAACACGCACCCACACAGACACAGAGGGAAGGGGUUGGGAUGGGGACAGGGUGCACAGCAGGGCGGGGUAGGACCCUAGCCCCUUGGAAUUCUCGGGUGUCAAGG	1.78
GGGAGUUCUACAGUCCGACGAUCUCCUGUGCUACACAUCGUAUGUACCGAAUCGGGAAAAAAGGGAAAAAAGGGAAAAAAGGGAAAGUAUUAUGUUACGCCGUUCGGAUCUGCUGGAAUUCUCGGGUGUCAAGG	-0.362
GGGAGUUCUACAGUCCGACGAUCACCAUGCAGGUGGGCAUCUUUGGGAAGUAAAGCAAGGGGGGGAUAGGGAGGGGGGUAACACUUUGGGAACAGGUGGUCCCAGGUCGUUUCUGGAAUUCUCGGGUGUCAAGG	1.15
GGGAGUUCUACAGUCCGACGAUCUCCUGUGCUACACAUCGUAUGUACCGAAUCGGGAAAAAAGGGGAAAAAAGGAAAAAAGGGAAAGUAUUAUGUUACGCCGUUCGGAUCUGCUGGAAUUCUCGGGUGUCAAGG	-0.286
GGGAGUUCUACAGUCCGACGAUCGCAGGAAGUAAAAACAAAUGGAAAUGCUUCGGAUAGUGGCAGGGGUGGGGGUUGCUAAGGAAAGGGUGGGAUGGAAGUGGGUAAAGAGUUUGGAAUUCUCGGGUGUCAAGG	0.955
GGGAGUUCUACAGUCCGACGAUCUAACUUUAGAGGAGGAUCUGAUGGAUAUGGCAGUGGACGUGGAUUUGGGGAUGGCUAUAAUGGGUAUGGAGGAGGACCUGGAGGCGGCAAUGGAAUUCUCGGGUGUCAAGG	0.202
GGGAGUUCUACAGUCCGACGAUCGUCCUGUGCUACACAUCGUAUGUACCGAAUCGGGGUUUUUGGGGUUUUUGGUUUUUGGAAAGUAUUAUGUUACGCCGUUCGGAUCUGCACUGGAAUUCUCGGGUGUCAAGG	-0.515
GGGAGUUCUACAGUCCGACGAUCAGUCCUGUGCUACACAUCGUAUGUACCGAAUCGGGUUUUUUUGGGUUUUUGGGUGGGAAAGUAUUAUGUUACGCCGUUCGGAUCUGCACUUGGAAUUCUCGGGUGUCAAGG	-0.265
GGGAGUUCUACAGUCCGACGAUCUGGGAGGUGGAUUUUGUUUAUUUUUUUAGCUCAUUUCCAGGGGUGGGAAUUUUUUUCUAAUAUGUGUCAUGAAUAAAGUUGUUUUUGAAAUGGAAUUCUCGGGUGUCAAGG	0.213
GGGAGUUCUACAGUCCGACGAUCUGGGAGGUGGAUUUUGUUUAUUGUUUUAGCUCAUUUCCAGGGGUGGGAAUUUUUUUUUAAUAUGUGUCAUGAAUAAAGUUGUUUUUGAAAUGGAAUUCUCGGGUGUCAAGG	0.215

Repeated from above (block 1):
Modification	mean fluorescence intensity [a.u.]
2'F-ANA at 3 5 6 7 8 9 11 12 13 15	140
2'F-ANA at 1 2 4 6 7 8 9 15	122
2'F-ANA at 1 2 5 6 7 8 10 11 15	58.5
2'F-ANA at 4 10 11 13 15	124
2'F-ANA at 3 4 5 7 8 13	75.2
2'F-ANA at 1 3 9 12	620
2'F-ANA at 1 4 6 7 9 11 13	70.5
2'F-ANA at 2 5 6 7 8 14	48.7
2'F-ANA at 3 4 5 10 11 14 15	93.1
